{"data": "Measured values from different studies", "note": "Numbered parts are unrelated; each lists some results of a single study."}
{"data": "Study 1", "target": "Sal-like protein 4, full length isoform A (SALL4, Homo sapiens, UniProt Q9UJQ4, residues 1-1053)", "technique": "universal PBM", "form": "double-stranded DNA, one strand shown", "medium": "in vitro", "tested at": "600 nM", "setting": "8-mer, flanks averaged, mean of replicates", "reading": "higher = stronger binding", "UniProt Q9UJQ4, sequence (whole entry, looked up)": "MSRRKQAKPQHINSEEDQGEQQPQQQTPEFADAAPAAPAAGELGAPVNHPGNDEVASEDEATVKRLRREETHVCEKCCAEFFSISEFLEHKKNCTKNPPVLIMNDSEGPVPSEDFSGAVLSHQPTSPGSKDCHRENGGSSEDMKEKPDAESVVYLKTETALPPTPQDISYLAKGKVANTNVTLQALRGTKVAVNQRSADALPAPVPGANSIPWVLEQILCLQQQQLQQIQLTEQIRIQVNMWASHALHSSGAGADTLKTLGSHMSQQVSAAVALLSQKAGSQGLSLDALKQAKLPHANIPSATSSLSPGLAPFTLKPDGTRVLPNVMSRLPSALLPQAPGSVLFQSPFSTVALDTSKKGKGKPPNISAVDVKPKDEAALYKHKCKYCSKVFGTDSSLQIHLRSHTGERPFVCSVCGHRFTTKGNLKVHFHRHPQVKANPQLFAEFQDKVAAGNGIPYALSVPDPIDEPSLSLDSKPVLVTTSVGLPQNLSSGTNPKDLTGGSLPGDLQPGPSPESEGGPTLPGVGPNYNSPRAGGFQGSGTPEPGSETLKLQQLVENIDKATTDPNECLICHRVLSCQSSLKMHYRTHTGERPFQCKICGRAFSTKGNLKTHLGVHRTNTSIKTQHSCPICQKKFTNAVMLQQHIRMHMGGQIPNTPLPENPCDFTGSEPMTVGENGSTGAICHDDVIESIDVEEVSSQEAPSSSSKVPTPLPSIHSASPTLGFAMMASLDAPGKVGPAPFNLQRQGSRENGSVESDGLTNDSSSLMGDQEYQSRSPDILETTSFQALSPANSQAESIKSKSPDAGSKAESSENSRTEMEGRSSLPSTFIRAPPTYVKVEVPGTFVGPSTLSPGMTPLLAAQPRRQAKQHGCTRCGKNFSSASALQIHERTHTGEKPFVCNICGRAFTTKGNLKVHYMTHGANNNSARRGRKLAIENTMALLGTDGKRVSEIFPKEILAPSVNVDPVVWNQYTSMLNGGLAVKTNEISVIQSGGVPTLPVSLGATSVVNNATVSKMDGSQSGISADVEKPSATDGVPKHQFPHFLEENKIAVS"}
{"Strand": "CGGTGACG", "E-score": -0.14}
{"Strand": "GCAAAAAC", "E-score": 0.138}
{"Strand": "AATCACGA", "E-score": 0.0402}
{"Strand": "ACAGTTAA", "E-score": 0.167}
{"Strand": "GTGCGCAC", "E-score": -0.0838}
{"Strand": "ACCGCGAC", "E-score": -0.201}
{"Strand": "AATGCAGA", "E-score": 0.144}
{"Strand": "ACCTATGA", "E-score": 0.038}
{"Strand": "CCGAGTAG", "E-score": -0.0643}
{"Strand": "GCCAGGAA", "E-score": -0.12}
{"Strand": "AGTGGCGG", "E-score": -0.222}
{"Strand": "AGCAGATC", "E-score": 0.0263}
{"Strand": "AGGGAATC", "E-score": -0.223}
{"Strand": "CATTATAG", "E-score": 0.268}
{"Strand": "AGTGAAAC", "E-score": 0.0745}
{"Strand": "CTCACCAC", "E-score": -0.167}
{"Strand": "CCTCATAC", "E-score": 0.144}
{"Strand": "CGGCTGTA", "E-score": -0.225}
{"data": "Study 2", "target": "Histone acetyltransferase KAT6A, winged helix 2, GST fusion (KAT6A, Homo sapiens, UniProt Q92794, residues 85-181)", "technique": "protein binding microarray", "form": "double-stranded DNA, one strand shown", "medium": "in vitro", "tested at": "not given", "setting": "8-mer, flanks averaged, mean of 2 arrays, mostly near background", "relative to": "not given", "reading": "higher = stronger binding", "Residues (chain)": "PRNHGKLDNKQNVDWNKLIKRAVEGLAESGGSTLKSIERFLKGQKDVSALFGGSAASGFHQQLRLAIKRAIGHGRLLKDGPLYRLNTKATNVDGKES"}
{"Strand": "CCCTGTTA", "E-score": -0.029}
{"Strand": "ATAGTTCA", "E-score": 0.0155}
{"Strand": "CTCGTCGA", "E-score": 0.0856}
{"Strand": "AGAATACT", "E-score": -0.0615}
{"Strand": "AAAGCTGT", "E-score": 0.0317}
{"Strand": "ATCGCATG", "E-score": 0.109}
{"Strand": "AGACGATA", "E-score": -0.0777}
{"Strand": "CTCCCCCC", "E-score": 0.108}
{"Strand": "AGGCTTAT", "E-score": -0.039}
{"Strand": "CACAAGCG", "E-score": -0.00448}
{"Strand": "CTAATACA", "E-score": -0.122}
{"Strand": "CTCTTCTA", "E-score": -0.153}
{"Strand": "GCATCTCC", "E-score": -0.114}
{"Strand": "ACGGTGTC", "E-score": -0.111}
{"Strand": "AGCTCATC", "E-score": -0.0865}
{"Strand": "AAATCCTA", "E-score": 0.0246}
{"Strand": "CCGTACTA", "E-score": -0.0476}
{"Strand": "AGCTAGCG", "E-score": -0.0789}
{"Strand": "CCGTGACA", "E-score": -0.139}
{"Strand": "ACTTAAGC", "E-score": -0.0798}
{"Strand": "CGCAAGAG", "E-score": 0.23}
{"Strand": "GCATCGGC", "E-score": 0.128}
{"Strand": "AAAACAGC", "E-score": 0.00257}
{"data": "Study 3", "target": "RNA binding protein fox-1 homolog 2, RRM domain, GST-SBP tag (RBFOX2, Homo sapiens, UniProt O43251-10, residues 100-194)", "technique": "RNA Bind-n-Seq", "form": "RNA", "medium": "in vitro", "tested at": "365 nM", "setting": "natural RNA segment, single round, ends assumed", "relative to": "no-protein control", "reading": "higher = stronger binding", "shared flanks, not repeated": "GGGAGUUCUACAGUCCGACGAUC … UGGAAUUCUCGGGUGCCAA", "Construct (chain)": "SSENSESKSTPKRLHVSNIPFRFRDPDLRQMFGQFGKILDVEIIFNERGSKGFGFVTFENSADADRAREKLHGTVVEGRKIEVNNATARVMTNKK"}
{"Strand": "GGCUGCAUCGGGAGCUAGAGCCAGCUAACAUUUCCUCUUUUCAAGACUGCCCUUGAUUUGCCCCUUGGUGCCAUGUAUUUCAGAGUUAAGGUCCUGCUUUCUCCACCUGG", "RBNS enrichment (R)": 0.776}
{"Strand": "UCACCCAAGUCACAGGAUGAUUAUUAAAAGAACACACACACCAAAAAACAUACUUAUCCUAAAGAGAUGGUGAGAUAUAACAUGCCUUAAAUUAUAUUAUAGAAUUUAAA", "RBNS enrichment (R)": 0.64}
{"Strand": "UUAGUGUUUUAAAUUGGAACAUAUCUUGCCUCAUGAAGCUUUAAAUUAUAAUUUUCAGUUUCUCCCCAUGAAGCGCUCUCGUCUGACAUUUGUUUGGAAUCGUGCCACUG", "RBNS enrichment (R)": 0.376}
{"Strand": "CUAUCUGGAACUGUGUCUGUCAGACCAAUGGUACCAGGGAGGCUGCAGUGCUGCCAGCUUUUCAAGGGUCCUGACUCUGUCAGACACUUUCUGGAUUCAGCCACUAAGGA", "RBNS enrichment (R)": 0.301}
{"Strand": "UUGCUGGUGGGGUCCCCCCUGGUAUCCUCCCCACCCUGACACUUCAAGUCUGCGAGGCUAGGCACUUCCUCUCCCACGAAGGCCAGACAAGAAGGCCCAGCUAGAAGAAC", "RBNS enrichment (R)": 0.413}
{"Strand": "UUACUUUACACAUACGUGUAUGUACACACACACACACAAUACAAGACAUUUUUCCUGUUUUAGAAAAUAUAGCCCUUGUUUGGAUUACUGCUGUCUGAGCACUAGAAAUU", "RBNS enrichment (R)": 0.632}
{"Strand": "GGAGAGCGGUGUUCUUCACUCGACUCCACCCUGCUGGACACAGGAAAAUUUCAAUUGCUAAAAAAAAAUCAAAGCACUCAUUCACUUGGGGGGAGGAUCCUACGCAGGGG", "RBNS enrichment (R)": 0.612}
{"Strand": "ACAGGCCUGGUGUGGUUUGUUCUGGUCUCAUUCAGGUUUAGGGGUGCUCCUGCACAGGCUUCUGCACCUCCAAGCACAGCUGAUCUGAUCCAAGGCUGUUGGGCCUCUCA", "RBNS enrichment (R)": 0.336}
{"data": "Study 4", "target": "Prothrombin, mature alpha-thrombin (F2, Homo sapiens, UniProt P00734)", "technique": "aptamer microarray, sandwich", "form": "DNA with 2'F-ANA", "medium": "in vitro", "tested at": "200 nM", "setting": "whole 15-mer aptamer, many near background", "together with": "Cy3 exosite-II aptamer, 400 nM", "reading": "higher = stronger binding", "strand": "GGTTGGTGTGGTTGG"}
{"Modification": "2'F-ANA at 2 3 7 10 14", "mean fluorescence intensity [a.u.]": 393}
{"Modification": "2'F-ANA at 1 3 7 8 11 14 15", "mean fluorescence intensity [a.u.]": 104}
{"Modification": "2'F-ANA at 5 9 13 14", "mean fluorescence intensity [a.u.]": 62.1}
{"Modification": "2'F-ANA at 2 7 9 11 13 14", "mean fluorescence intensity [a.u.]": 153}
{"Modification": "2'F-ANA at 1 3 4 7 10 14", "mean fluorescence intensity [a.u.]": 49}
{"Modification": "2'F-ANA at 8 11 12", "mean fluorescence intensity [a.u.]": 838}
{"Modification": "2'F-ANA at 1 5 7 12 13", "mean fluorescence intensity [a.u.]": 76.6}
{"Modification": "2'F-ANA at 2 3 6 7 8 9 11 12 13 14 15", "mean fluorescence intensity [a.u.]": 357}
{"Modification": "2'F-ANA at 2 3 4 5 7 8 9 10", "mean fluorescence intensity [a.u.]": 54.1}
{"Modification": "2'F-ANA at 1 2 3 4 7 8 10 11 13 14 15", "mean fluorescence intensity [a.u.]": 52}
{"Modification": "2'F-ANA at 1 2 3 4 7 8 10 12 15", "mean fluorescence intensity [a.u.]": 76.9}
{"Modification": "2'F-ANA at 1 3 5 6 7 8 13 15", "mean fluorescence intensity [a.u.]": 54.5}
{"Modification": "2'F-ANA at 1 2 5 6 8 9 12 13 15", "mean fluorescence intensity [a.u.]": 75.8}
{"Modification": "2'F-ANA at 6 9 15", "mean fluorescence intensity [a.u.]": 469}
{"Modification": "2'F-ANA at 4 5 6 9 12 13 14 15", "mean fluorescence intensity [a.u.]": 51.1}
{"Modification": "2'F-ANA at 3 4 6 7 8 11 14 15", "mean fluorescence intensity [a.u.]": 268}
{"note": "Some of these lines once more (study 4):"}
{"Modification": "2'F-ANA at 5 9 13 14", "mean fluorescence intensity [a.u.]": 62.1}
{"Modification": "2'F-ANA at 2 7 9 11 13 14", "mean fluorescence intensity [a.u.]": 153}
{"Modification": "2'F-ANA at 1 3 4 7 10 14", "mean fluorescence intensity [a.u.]": 49}
{"Modification": "2'F-ANA at 8 11 12", "mean fluorescence intensity [a.u.]": 838}
{"Modification": "2'F-ANA at 1 5 7 12 13", "mean fluorescence intensity [a.u.]": 76.6}
{"Modification": "2'F-ANA at 2 3 6 7 8 9 11 12 13 14 15", "mean fluorescence intensity [a.u.]": 357}
{"Modification": "2'F-ANA at 2 3 4 5 7 8 9 10", "mean fluorescence intensity [a.u.]": 54.1}
{"Modification": "2'F-ANA at 1 2 3 4 7 8 10 11 13 14 15", "mean fluorescence intensity [a.u.]": 52}
{"Modification": "2'F-ANA at 1 2 3 4 7 8 10 12 15", "mean fluorescence intensity [a.u.]": 76.9}
{"Modification": "2'F-ANA at 1 3 5 6 7 8 13 15", "mean fluorescence intensity [a.u.]": 54.5}
